# Assay results pooled from the literature.
# ± gives the spread as reported.
test,system,conditions,how to read,measurement,result,SMILES
microPET imaging,"female athymic nude mouse, U-87 MG xenograft, U-87 MG tumour","intravenous, 3.7 MBq, 1 h post-injection",,tumour uptake,2.82 ± 0.39 %ID/g,CC(F)C(=O)NC[C@@H]1O[C@H](C(=O)N[C@@H](CCC(=O)NCCCC[C@@H]2NC(=O)[C@@H](Cc3ccc(O)cc3)NC(=O)[C@H](CC(=O)O)NC(=O)CNC(=O)[C@H](CCCNC(=N)N)NC2=O)C(=O)NCCCC[C@@H]2NC(=O)[C@@H](Cc3ccc(O)cc3)NC(=O)[C@H](CC(=O)O)NC(=O)CNC(=O)[C@H](CCCNC(=N)N)NC2=O)[C@H](O)[C@H](O)[C@H]1O (stereo partly drawn) [fluorine-18 labelled]
MIRD dosimetry,"mouse, PC-3 xenograft","intravenous, 50 MBq",,tumour absorbed dose,10 Gy,CC(C)C[C@H](NC(=O)C[C@H](O)[C@H](CC(C)C)NC(=O)[C@H](Cc1c[nH]cn1)NC(=O)CNC(=O)[C@@H](NC(=O)[C@H](C)NC(=O)[C@H](Cc1c[nH]c2ccccc12)NC(=O)[C@H](CCC(N)=O)NC(=O)[C@@H](Cc1ccccc1)NC(=O)CCNC(=O)CCNC(=O)CN1CCN(CC(=O)O)CCN(CC(=O)O)CCN(CC(=O)O)CC1)C(C)C)C(N)=O [lutetium-177 labelled]
,"BALB/c nude mouse, male, HCT-116 xenograft, tumour","intravenous, 5 mg/kg, 1 h",reference: doxorubicin,tumour accumulation,6.4 fold,COc1cccc2c1C(=O)c1c(O)c3c(c(O)c1C2=O)CC(O)(C(=O)CO)CC3OC1CC(NC(=O)C[C@H](N)C(=O)O)C(O)C(C)O1 (stereo partly drawn)
,female C57 mouse B16/F1 melanoma,"intravenous, 0.037 MBq, 4 h",,tumour to kidney ratio,2.98,CCCC[C@H](NC(=O)CNC(=O)CNC(=O)CN1CCN(CC(=O)O)CCN(CC(=O)O)CCN(CC(=O)O)CC1)C(=O)N[C@H]1CC(=O)NCCCC[C@@H](C(N)=O)NC(=O)[C@H](Cc2c[nH]c3ccccc23)NC(=O)[C@H](CCCNC(=N)N)NC(=O)[C@@H](Cc2ccccc2)NC(=O)[C@H](Cc2c[nH]cn2)NC1=O [gallium-67 labelled]
biodistribution,C57BL/6J mouse male tumour-bearing,"2 h post injection, unblocked",reference: tumour over blood,tumour to blood ratio,96.4 ± 13.9,CCCC[C@H](NC(=O)CN1CCC(NC(=O)CN2CCN(CC(=O)O)CCN(CC(=O)O)CCN(CC(=O)O)CC2)CC1)C(=O)N[C@H]1CC(=O)NCCCC[C@@H](C(N)=O)NC(=O)[C@H](Cc2c[nH]c3ccccc23)NC(=O)[C@H](CCCNC(=N)N)NC(=O)[C@@H](Cc2ccccc2)NC(=O)[C@H](Cc2c[nH]cn2)NC1=O
,"female BALB/c mouse, orthotopic 4T1 tumour, tumour over blood","intravenous, 0.185 MBq, 1 h",,tumour to tissue ratio,0.6 ± 0.03,CC[C@H](C)[C@H](NC(=O)[C@H](C)NC(=O)[C@H](CC(C)C)NC(=O)[C@H](Cc1ccc(O)c(I)c1)NC(C)=O)C(=O)NCCCCCC(=O)N1CCC[C@H]1C(=O)N[C@@H](C)C(=O)N[C@@H](CC(=O)O)C(=O)N[C@@H](CCC(=O)O)C(=O)N[C@H](C(=O)N[C@@H](CC(=O)O)C(=O)NCC(=O)N[C@@H](CCCNC(=N)N)C(=O)N[C@@H](CCCNC(=N)N)C(=O)N[C@@H](CCCNC(=N)N)C(=O)N[C@@H](CCCN)C(=O)N[C@@H](CCCNC(=N)N)C(=O)N[C@@H](CCCNC(=N)N)C(=O)N[C@@H](CCCCN)C(=O)N[C@@H](CCCCN)C(=O)N[C@@H](CCCNC(=N)N)C(=O)N[C@@H](CCCCNC(=O)CN1CCN(CC(=O)O)CCN(CC(=O)O)CCN(CC(=O)O)CC1)C(N)=O)C(C)C [iodine-125 labelled]
measured: ruthenium,"NOD.CB17-Prkdc scid/J mouse, tumour","dose not given, end of efficacy study",,tumour concentration,~40 µg/g,Cc1ccc(C(C)C)cc1.O=C(N=P(c1ccccc1)(c1ccccc1)c1ccccc1)c1ccccn1.[Cl-].[Cl-].[Ru+2]
,"female nude BALB/c mouse, SK-RC-52 xenograft, tumour","intravenous, 2 h",,tumour uptake,5.61 ± 0.85 %ID/g,N=C(N)NCCC[C@@H]1NC(=O)[C@H](CCCCNC(=O)CC[C@H](NC(=O)CN2CCN(CC(=O)O)CCN(CC(=O)O)CCN(CC(=O)O)CC2)C(=O)NCCCC[C@@H]2NC(=O)[C@@H](Cc3ccccc3)NC(=O)[C@H](CC(=O)O)NC(=O)CNC(=O)[C@H](CCCNC(=N)N)NC2=O)NC(=O)[C@@H](Cc2ccccc2)NC(=O)[C@H](CC(=O)O)NC(=O)CNC1=O [indium-111 labelled]
,"mouse, CWR22Rv1 xenograft","dose not given, 4 h",reference: tumour over blood,tumour to blood ratio,265 ± 136,O=C(O)CCC(NP(=O)(O)OCCC[C@@H](NC(=O)CC[C@H](NC(=O)CCCCCNC(=O)c1ccc([18F])cc1)C(=O)O)C(=O)O)C(=O)O (stereo partly drawn)
,"C57 mouse, B16/F1 melanoma",4 h,reference: tumour over skin,tumour to skin uptake ratio,44.2,CCCC[C@H](NC(=O)[C@H](CCC(=O)O)NC(=O)CNC(=O)CN1CCN(CC(=O)O)CCN(CC(=O)O)CCN(CC(=O)O)CC1)C(=O)N[C@H]1CC(=O)NCCCC[C@@H](C(N)=O)NC(=O)[C@H](Cc2c[nH]c3ccccc23)NC(=O)[C@H](CCCNC(=N)N)NC(=O)[C@@H](Cc2ccccc2)NC(=O)[C@H](Cc2c[nH]cn2)NC1=O [indium-111 labelled]
,"C57 mouse, female, B16/F1 melanoma","intravenous, 0.037 MBq, 2 h",reference: tumour over lung,tumour to tissue ratio,6.89,CC(C)[C@H](NC(=O)[C@@H]1CCCN1C(=O)[C@H](CCCNC(=N)N)NC(=O)[C@H](CS)NC(=O)[C@H](Cc1c[nH]c2ccccc12)NC(=O)[C@H](CCCNC(=N)N)NC(=O)[C@@H](Cc1ccccc1)NC(=O)[C@H](Cc1c[nH]cn1)NC(=O)[C@H](CCC(=O)O)NC(=O)[C@H](CS)NC(=O)[C@H](CS)NC(=O)CNC(=O)[C@@H]1CC(=O)N[C@@H](CCCNC(=N)N)C(=O)NCC(=O)N[C@@H](CC(=O)O)C(=O)N[C@H](Cc2ccc(O)cc2)C(=O)N1)C(N)=O [technetium-99m labelled]
microPET imaging,"female athymic nude mouse, U-87 MG xenograft, U-87 MG tumour","intravenous, 3.7 MBq, 2 h post-injection",,tumour uptake,2.5 ± 0.17 %ID/g,CC(F)C(=O)NCCOCCOCCOCC(=O)N[C@@H](CCC(=O)NCCCC[C@@H]1NC(=O)[C@@H](Cc2ccc(O)cc2)NC(=O)[C@H](CC(=O)O)NC(=O)CNC(=O)[C@H](CCCNC(=N)N)NC1=O)C(=O)NCCCC[C@@H]1NC(=O)[C@@H](Cc2ccc(O)cc2)NC(=O)[C@H](CC(=O)O)NC(=O)CNC(=O)[C@H](CCCNC(=N)N)NC1=O (stereo partly drawn) [fluorine-18 labelled]
biodistribution,"SCID mouse, Daudi lymphoma xenograft",1 h post-injection,,tumour to small intestine ratio,2.2 ± 0.4,CN1C(=O)[C@@H](Cc2ccc(O)c(I)c2)NC(=O)CNC(=O)[C@H](Cc2ccc3ccccc3c2)NC(=O)[C@H](CCCNC(=N)N)NC(=O)[C@H]1CCCNC(=O)c1ccc(CNC(=O)CN2CCN(CC(=O)O)CCN(CC(=O)O)CC2)cc1 [fluorine-18 labelled]
,"C57 mouse, B16/F1 melanoma",2 h,reference: tumour over skin,tumour to skin uptake ratio,70.6,CCCC[C@H](NC(=O)CNC(=O)CNC(=O)CN1CCN(CC(=O)O)CCN(CC(=O)O)CCN(CC(=O)O)CC1)C(=O)N[C@H]1CC(=O)NCCCC[C@@H](C(N)=O)NC(=O)[C@H](Cc2c[nH]c3ccccc23)NC(=O)[C@H](CCCNC(=N)N)NC(=O)[C@@H](Cc2ccccc2)NC(=O)[C@H](Cc2c[nH]cn2)NC1=O [indium-111 labelled]
microPET,"female athymic nude mouse, U-87 MG xenograft, U-87 MG tumour","intravenous, 3.7 MBq, 20 min",,tumour uptake,1.95 ± 0.25 %ID/g,CC(F)C(=O)NC[C@@H]1O[C@H](C(=O)NCCCC[C@@H]2NC(=O)[C@@H](Cc3ccc(O)cc3)NC(=O)[C@H](CC(=O)O)NC(=O)CNC(=O)[C@H](CCCNC(=N)N)NC2=O)[C@H](O)[C@H](O)[C@H]1O (stereo partly drawn) [fluorine-18 labelled]
,"female nude BALB/c mouse, SK-RC-52 xenograft, tumour","intravenous, 2 h",,tumour uptake,7.11 ± 0.67 %ID/g,N=C(N)NCCC[C@@H]1NC(=O)[C@H](CCCCNC(=O)CC[C@H](NC(=O)CC[C@H](NC(=O)CN2CCN(CC(=O)O)CCN(CC(=O)O)CCN(CC(=O)O)CC2)C(=O)N[C@@H](CCC(=O)NCCCC[C@@H]2NC(=O)[C@@H](Cc3ccccc3)NC(=O)[C@H](CC(=O)O)NC(=O)CNC(=O)[C@H](CCCNC(=N)N)NC2=O)C(=O)NCCCC[C@@H]2NC(=O)[C@@H](Cc3ccccc3)NC(=O)[C@H](CC(=O)O)NC(=O)CNC(=O)[C@H](CCCNC(=N)N)NC2=O)C(=O)NCCCC[C@@H]2NC(=O)[C@@H](Cc3ccccc3)NC(=O)[C@H](CC(=O)O)NC(=O)CNC(=O)[C@H](CCCNC(=N)N)NC2=O)NC(=O)[C@@H](Cc2ccccc2)NC(=O)[C@H](CC(=O)O)NC(=O)CNC1=O [gallium-68 labelled]
microPET,"female athymic nude mouse, U-87 MG xenograft, U-87 MG tumour","intravenous, 3.7 MBq, 120 min",,tumour uptake,0.87 ± 0.13 %ID/g,CC(F)C(=O)NC[C@@H]1O[C@H](C(=O)NCCCC[C@@H]2NC(=O)[C@@H](Cc3ccccc3)NC(=O)[C@H](CC(=O)O)NC(=O)CNC(=O)[C@H](CCCNC(=N)N)NC2=O)[C@H](O)[C@H](O)[C@H]1O (stereo partly drawn) [fluorine-18 labelled]
,"mouse SK-OV-3 xenograft, tumour","intraperitoneal, 100 mg/kg single, 1 h",,tumour concentration,22.7 ± 2.1 µM,Cc1nc(NC(=O)N2CCC[C@H]2C(N)=O)sc1-c1csc(C(C)(C)C)n1

# For quick reference, copied from above:
test,system,conditions,how to read,measurement,result,SMILES
,"female nude BALB/c mouse, SK-RC-52 xenograft, tumour","intravenous, 2 h",,tumour uptake,7.11 ± 0.67 %ID/g,N=C(N)NCCC[C@@H]1NC(=O)[C@H](CCCCNC(=O)CC[C@H](NC(=O)CC[C@H](NC(=O)CN2CCN(CC(=O)O)CCN(CC(=O)O)CCN(CC(=O)O)CC2)C(=O)N[C@@H](CCC(=O)NCCCC[C@@H]2NC(=O)[C@@H](Cc3ccccc3)NC(=O)[C@H](CC(=O)O)NC(=O)CNC(=O)[C@H](CCCNC(=N)N)NC2=O)C(=O)NCCCC[C@@H]2NC(=O)[C@@H](Cc3ccccc3)NC(=O)[C@H](CC(=O)O)NC(=O)CNC(=O)[C@H](CCCNC(=N)N)NC2=O)C(=O)NCCCC[C@@H]2NC(=O)[C@@H](Cc3ccccc3)NC(=O)[C@H](CC(=O)O)NC(=O)CNC(=O)[C@H](CCCNC(=N)N)NC2=O)NC(=O)[C@@H](Cc2ccccc2)NC(=O)[C@H](CC(=O)O)NC(=O)CNC1=O [gallium-68 labelled]
measured: ruthenium,"NOD.CB17-Prkdc scid/J mouse, tumour","dose not given, end of efficacy study",,tumour concentration,~40 µg/g,Cc1ccc(C(C)C)cc1.O=C(N=P(c1ccccc1)(c1ccccc1)c1ccccc1)c1ccccn1.[Cl-].[Cl-].[Ru+2]
